Measurements pooled from the literature.
Protocols differ between the studies behind these lines.
ENAH: Protein enabled homolog (ENAH, UniProt Q8N8S7)
UniProt Q8N8S7, sequence (whole entry, looked up): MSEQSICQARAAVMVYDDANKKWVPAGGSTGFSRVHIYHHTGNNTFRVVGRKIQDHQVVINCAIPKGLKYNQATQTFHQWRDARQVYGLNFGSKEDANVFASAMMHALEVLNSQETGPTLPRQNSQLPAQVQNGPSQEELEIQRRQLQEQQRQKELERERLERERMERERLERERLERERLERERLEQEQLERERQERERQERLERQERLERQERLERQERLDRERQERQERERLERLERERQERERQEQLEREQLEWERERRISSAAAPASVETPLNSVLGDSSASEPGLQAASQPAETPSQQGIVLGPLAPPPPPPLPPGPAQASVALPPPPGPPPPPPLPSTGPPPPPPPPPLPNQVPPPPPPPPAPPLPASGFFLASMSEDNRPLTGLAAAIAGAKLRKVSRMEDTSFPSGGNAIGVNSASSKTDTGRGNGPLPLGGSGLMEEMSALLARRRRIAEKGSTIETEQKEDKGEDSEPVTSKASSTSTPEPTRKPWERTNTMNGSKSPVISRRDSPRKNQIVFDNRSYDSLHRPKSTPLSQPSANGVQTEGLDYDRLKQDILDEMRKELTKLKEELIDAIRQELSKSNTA
4'-phosphopantetheinyl transferase PptT: 4'-phosphopantetheinyl transferase PptT (Mycobacterium tuberculosis, UniProt O33336)
UniProt O33336, sequence (whole entry, looked up): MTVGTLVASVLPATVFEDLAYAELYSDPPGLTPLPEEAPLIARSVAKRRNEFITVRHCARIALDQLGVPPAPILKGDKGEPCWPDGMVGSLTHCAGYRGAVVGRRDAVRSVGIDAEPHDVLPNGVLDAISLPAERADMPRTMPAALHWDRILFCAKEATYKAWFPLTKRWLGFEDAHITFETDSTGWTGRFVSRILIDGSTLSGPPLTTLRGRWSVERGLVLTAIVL
TEAD4: Transcriptional enhancer factor TEF-3 (TEAD4, Homo sapiens, UniProt Q15561)
UniProt Q15561, sequence (whole entry, looked up): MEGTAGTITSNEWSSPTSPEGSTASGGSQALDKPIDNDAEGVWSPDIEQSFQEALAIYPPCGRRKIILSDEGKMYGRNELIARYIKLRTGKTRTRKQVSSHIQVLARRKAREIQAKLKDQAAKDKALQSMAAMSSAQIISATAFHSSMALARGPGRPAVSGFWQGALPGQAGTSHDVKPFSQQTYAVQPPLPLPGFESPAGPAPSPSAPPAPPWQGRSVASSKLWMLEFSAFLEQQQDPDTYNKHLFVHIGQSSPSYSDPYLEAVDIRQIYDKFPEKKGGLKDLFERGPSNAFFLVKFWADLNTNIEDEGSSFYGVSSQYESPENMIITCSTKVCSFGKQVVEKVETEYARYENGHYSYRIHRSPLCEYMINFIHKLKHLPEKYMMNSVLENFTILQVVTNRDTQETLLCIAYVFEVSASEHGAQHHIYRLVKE
UniProt P07148, sequence (whole entry, looked up): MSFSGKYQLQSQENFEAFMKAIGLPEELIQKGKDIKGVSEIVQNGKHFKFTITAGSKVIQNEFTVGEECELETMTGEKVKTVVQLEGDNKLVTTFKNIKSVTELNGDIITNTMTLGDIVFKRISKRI
UniProt Q9H252, sequence (whole entry, looked up): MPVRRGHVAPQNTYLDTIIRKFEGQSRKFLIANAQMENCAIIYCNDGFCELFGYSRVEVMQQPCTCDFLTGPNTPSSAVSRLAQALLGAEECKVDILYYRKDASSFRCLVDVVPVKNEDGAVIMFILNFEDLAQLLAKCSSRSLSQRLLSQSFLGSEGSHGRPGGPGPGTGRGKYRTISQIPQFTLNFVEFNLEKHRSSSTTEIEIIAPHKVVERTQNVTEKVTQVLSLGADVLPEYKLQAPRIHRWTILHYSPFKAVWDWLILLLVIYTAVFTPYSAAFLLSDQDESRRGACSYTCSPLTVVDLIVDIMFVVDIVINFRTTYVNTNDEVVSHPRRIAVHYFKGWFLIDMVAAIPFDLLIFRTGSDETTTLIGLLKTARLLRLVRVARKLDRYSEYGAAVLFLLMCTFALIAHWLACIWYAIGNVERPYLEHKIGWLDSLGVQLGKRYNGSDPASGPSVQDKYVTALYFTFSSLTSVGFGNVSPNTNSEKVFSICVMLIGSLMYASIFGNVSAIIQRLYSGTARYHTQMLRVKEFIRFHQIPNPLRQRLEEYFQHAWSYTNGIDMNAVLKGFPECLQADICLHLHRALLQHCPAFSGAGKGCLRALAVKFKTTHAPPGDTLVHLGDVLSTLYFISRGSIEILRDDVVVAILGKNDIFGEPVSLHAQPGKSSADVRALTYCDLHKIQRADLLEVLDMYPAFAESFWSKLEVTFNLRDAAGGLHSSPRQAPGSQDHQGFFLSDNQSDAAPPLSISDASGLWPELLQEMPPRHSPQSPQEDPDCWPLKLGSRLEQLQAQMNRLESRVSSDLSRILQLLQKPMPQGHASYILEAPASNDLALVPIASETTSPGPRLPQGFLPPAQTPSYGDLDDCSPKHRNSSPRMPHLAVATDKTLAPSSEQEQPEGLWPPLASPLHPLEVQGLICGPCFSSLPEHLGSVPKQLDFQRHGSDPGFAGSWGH
UniProt P30048, sequence (whole entry, looked up): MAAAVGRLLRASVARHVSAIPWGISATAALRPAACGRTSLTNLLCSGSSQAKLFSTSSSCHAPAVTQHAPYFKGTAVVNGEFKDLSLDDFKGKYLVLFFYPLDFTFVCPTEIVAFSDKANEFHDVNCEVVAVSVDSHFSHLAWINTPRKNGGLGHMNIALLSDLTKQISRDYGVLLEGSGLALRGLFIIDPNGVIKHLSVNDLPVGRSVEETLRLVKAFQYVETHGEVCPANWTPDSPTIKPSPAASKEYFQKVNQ
UniProt P04637, sequence (whole entry, looked up): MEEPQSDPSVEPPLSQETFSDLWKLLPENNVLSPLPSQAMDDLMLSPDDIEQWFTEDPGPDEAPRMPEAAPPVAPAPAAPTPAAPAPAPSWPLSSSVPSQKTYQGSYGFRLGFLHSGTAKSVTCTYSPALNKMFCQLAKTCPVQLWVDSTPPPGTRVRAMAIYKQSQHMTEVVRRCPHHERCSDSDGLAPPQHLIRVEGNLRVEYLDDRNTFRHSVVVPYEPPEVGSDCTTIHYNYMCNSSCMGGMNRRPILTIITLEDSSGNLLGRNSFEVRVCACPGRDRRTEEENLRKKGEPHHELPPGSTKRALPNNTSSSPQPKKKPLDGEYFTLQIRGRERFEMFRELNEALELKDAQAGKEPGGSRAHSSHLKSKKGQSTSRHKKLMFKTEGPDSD
UniProt Q00987, sequence (whole entry, looked up): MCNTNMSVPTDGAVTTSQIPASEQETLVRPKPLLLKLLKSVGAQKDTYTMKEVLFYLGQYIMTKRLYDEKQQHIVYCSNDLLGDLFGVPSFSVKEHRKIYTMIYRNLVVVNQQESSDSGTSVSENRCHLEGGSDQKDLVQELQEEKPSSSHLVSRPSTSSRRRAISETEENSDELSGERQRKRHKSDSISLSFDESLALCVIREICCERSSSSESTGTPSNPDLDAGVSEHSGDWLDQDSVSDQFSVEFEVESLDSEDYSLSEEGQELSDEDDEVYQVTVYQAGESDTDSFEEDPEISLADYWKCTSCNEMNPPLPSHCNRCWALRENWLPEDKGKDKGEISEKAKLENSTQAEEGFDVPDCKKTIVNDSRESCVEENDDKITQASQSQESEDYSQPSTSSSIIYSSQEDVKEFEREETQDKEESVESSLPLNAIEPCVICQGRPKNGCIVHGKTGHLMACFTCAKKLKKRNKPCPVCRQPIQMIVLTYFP
UniProt Q9UJS0, sequence (whole entry, looked up): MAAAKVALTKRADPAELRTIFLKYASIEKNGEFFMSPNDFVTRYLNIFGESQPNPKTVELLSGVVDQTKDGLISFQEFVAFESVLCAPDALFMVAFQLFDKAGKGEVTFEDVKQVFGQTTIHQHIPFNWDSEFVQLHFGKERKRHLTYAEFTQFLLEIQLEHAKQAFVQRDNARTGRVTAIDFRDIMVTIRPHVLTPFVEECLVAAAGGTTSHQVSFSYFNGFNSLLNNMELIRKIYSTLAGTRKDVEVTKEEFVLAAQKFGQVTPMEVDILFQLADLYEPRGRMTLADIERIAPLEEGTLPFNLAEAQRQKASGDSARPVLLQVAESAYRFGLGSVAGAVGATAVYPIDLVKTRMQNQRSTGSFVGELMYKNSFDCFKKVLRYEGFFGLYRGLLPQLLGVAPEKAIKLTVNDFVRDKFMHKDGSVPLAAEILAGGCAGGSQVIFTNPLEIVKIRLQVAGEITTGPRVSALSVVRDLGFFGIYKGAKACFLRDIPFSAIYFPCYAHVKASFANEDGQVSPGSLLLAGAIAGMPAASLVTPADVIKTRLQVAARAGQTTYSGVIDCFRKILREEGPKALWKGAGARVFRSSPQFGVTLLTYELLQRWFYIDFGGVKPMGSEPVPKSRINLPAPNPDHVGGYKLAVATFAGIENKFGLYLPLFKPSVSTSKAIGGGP
UniProt P19525, sequence (whole entry, looked up): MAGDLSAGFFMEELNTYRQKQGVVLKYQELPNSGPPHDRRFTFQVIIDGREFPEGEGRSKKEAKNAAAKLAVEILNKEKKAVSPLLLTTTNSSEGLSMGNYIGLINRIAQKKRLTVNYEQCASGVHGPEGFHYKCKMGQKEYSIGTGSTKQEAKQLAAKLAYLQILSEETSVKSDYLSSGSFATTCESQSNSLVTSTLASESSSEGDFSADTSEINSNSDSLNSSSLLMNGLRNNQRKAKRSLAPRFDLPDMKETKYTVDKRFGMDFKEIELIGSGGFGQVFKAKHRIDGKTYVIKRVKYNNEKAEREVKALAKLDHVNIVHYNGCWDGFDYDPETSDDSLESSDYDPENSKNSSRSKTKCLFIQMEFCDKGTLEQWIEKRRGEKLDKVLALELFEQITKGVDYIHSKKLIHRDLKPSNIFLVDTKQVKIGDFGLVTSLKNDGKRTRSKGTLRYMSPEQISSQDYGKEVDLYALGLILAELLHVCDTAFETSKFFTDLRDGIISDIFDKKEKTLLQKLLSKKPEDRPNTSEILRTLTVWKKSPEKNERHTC

SMILES	target	test	conditions	endpoint	result
CC(C)C[C@H](NC(=O)[C@H](CCC(=O)O)NC(=O)[C@H](CCC(=O)O)NC(=O)[C@H](CC(=O)O)NC(=O)[C@@H](NC(=O)[C@@H]1CCCN1C(=O)[C@@H]1CCCN1C(=O)[C@@H]1CCCN1C(=O)[C@@H]1CCCN1C(=O)[C@H](Cc1ccccc1)NC(=O)[C@@H](N)CC(=O)O)[C@@H](C)O)C(=O)O	ENAH	binding, fluorescence		Kd	13.5 µM
COc1ccc2[nH]c(=S)n(Cc3cccnc3)c(=O)c2c1	4'-phosphopantetheinyl transferase PptT	enzyme activity, inhibitor, FP		IC50	1.2 µM
C=CC1(C)CCC(C(=C)C)C(c2c[nH]c3ccccc23)C1N=C=S (single isomer, unassigned; (-))	Transcriptional coactivator YAP1 (YAP1, Homo sapiens, UniProt P46937)	binding, BLI		Kd	22.8 µM
[2H]c1c([2H])c([C@]2([2H])CCCN2C(=O)C(C)(C)Oc2ccc3cn[nH]c3c2)c([2H])c([2H])c1C([2H])([2H])[2H]	Serine/threonine-protein kinase Sgk3 (SGK3, Homo sapiens, UniProt Q96BR1)	binding, competition with immobilised ligand	1 µM	remaining binding	100%
Nc1ncc(-c2nc(N3CCOCC3)nc(N3CCOCC3)n2)c(C(F)F)n1	Phosphatidylinositol 4,5-bisphosphate 3-kinase catalytic subunit alpha isoform (PIK3CA, Homo sapiens, UniProt P42336, M1043I)	binding, competition with immobilised ligand	10 µM	remaining binding	0%
CC[C@H](C)[C@H](NC(=O)[C@H](C)NC(=O)[C@H](CCC(=O)O)NC(=O)[C@H](CC(=O)O)NC(=O)[C@H](Cc1ccccc1)NC(=O)[C@@H](NC(=O)[C@H](C)N)C(C)C)C(=O)N[C@@H](CC(C)C)C(=O)N[C@H](C(=O)N[C@H](C(=O)N[C@@H](Cc1ccccc1)C(=O)N[C@@H](Cc1c[nH]cn1)C(=O)N1CCC[C@H]1C(=O)N[C@@H](CCCCN)C(=O)O)[C@@H](C)CC)[C@@H](C)O	Glutamine synthetase (GLUL, Homo sapiens, UniProt P15104)	binding, SPR		Kd	53.1 µM
O=C(NS(=O)(=O)/C=C/c1cccs1)c1ccc(F)cc1Br	Fatty acid-binding protein, liver (FABP1, Homo sapiens, UniProt P07148)	ligand displacement, fluorescence		Kd	8.05 µM
CC(C)C[C@H](NC(=O)[C@H](CCCNC(=N)N)NC(=O)[C@H](CCCNC(=N)N)NC(=O)[C@@H]1CCCN1C(=O)[C@@H](N)C(C)C)C(=O)N[C@@H](CCCNC(=N)N)C(=O)N[C@@H](CCCCN)C(=O)N[C@@H](CC(C)C)C(=O)N1CCC[C@H]1C(=O)N[C@@H](C)C(=O)N[C@@H](CO)C(=O)N[C@@H](Cc1ccccc1)C(=O)N[C@@H](Cc1ccccc1)C(=O)N[C@@H](CCCCN)C(=O)N1CCC[C@H]1C(=O)N1CCC[C@H]1C(=O)N[C@@H](CCC(=O)O)C(=O)O	TEAD4	binding, SPR	pH 7.4	Kd	23.4 µM
NCCCC[C@H](N)C(=O)O	Voltage-gated inwardly rectifying potassium channel KCNH6 (KCNH6, Homo sapiens, UniProt Q9H252)	binding, MST		Kd	19500 µM
O=c1c2cc(Cl)ccc2[nH]c(=S)n1Cc1cncc(-c2nnn[nH]2)c1	4'-phosphopantetheinyl transferase PptT	enzyme activity, inhibitor, FP		IC50	1.06 µM
COC(CNC(=O)c1ccccc1OCC(=O)O)[CH2][Hg][OH] (stereo not drawn)	Electrogenic aspartate/glutamate antiporter SLC25A13, mitochondrial (SLC25A13, Homo sapiens, UniProt Q9UJS0)	binding, ITC	pH 6.5	Kd	0.0118 µM
Cc1nn(C)cc1-c1nc2c(N3CCN(Cc4ccc(Cl)cc4)CC3)c(Cl)cnc2[nH]1	Serine/threonine-protein kinase B-raf (BRAF, Homo sapiens, UniProt P15056)	binding, competition with immobilised ligand	1 µM	remaining binding	100%
CSCC[C@H](NC(=O)[C@@H]1CCCN1C(=O)[C@@H](N)C(C)C)C(=O)N[C@@H](CCCNC(=N)N)C(=O)N[C@@H](CC(C)C)C(=O)N[C@@H](CCCNC(=N)N)C(=O)N[C@@H](CCCCN)C(=O)N[C@@H](CC(C)C)C(=O)N1CCC[C@H]1C(=O)N[C@@H](C)C(=O)N[C@@H](CO)C(=O)N[C@@H](Cc1ccccc1)C(=O)N[C@@H](Cc1ccccc1)C(=O)N[C@@H](CCCCN)C(=O)N[C@@H](CCSC)C(=O)N1CCC[C@H]1C(=O)N[C@@H](CCC(=O)O)C(=O)O	TEAD4	binding, SPR	pH 7.4	Kd	47.2 µM
CC[C@H]1CN2CC[C@]3(C(=O)Nc4ccccc43)[C@@H]2C[C@@H]1/C(=C\OC)C(=O)OC	Thioredoxin-dependent peroxide reductase, mitochondrial (PRDX3, Homo sapiens, UniProt P30048)	binding, SPR		Kd	1.53 µM
CSCC[C@H](NC(=O)[C@H](CCCNC(=N)N)NC(=O)[C@@H](N)C(C)C)C(=O)N[C@@H](CCCNC(=N)N)C(=O)N[C@@H](CC(C)C)C(=O)N[C@@H](CCCNC(=N)N)C(=O)N[C@@H](CCCCN)C(=O)N[C@@H](CC(C)C)C(=O)N1CCC[C@H]1C(=O)N[C@@H](C)C(=O)N[C@@H](CO)C(=O)N[C@@H](Cc1ccccc1)C(=O)N[C@@H](Cc1ccccc1)C(=O)N[C@@H](CCCCN)C(=O)N1CCC[C@H]1C(=O)N1CCC[C@H]1C(=O)N[C@@H](CCC(=O)O)C(=O)O	TEAD4	binding, SPR	pH 7.4	Kd	23.9 µM
C[C@@]1(C(=O)O)CC[C@]2(C)CC[C@]3(C)C4=CC(=O)c5c(cc(O)c(O)c5C=O)[C@]4(C)CC[C@@]3(C)[C@@H]2C1	Cellular tumor antigen p53 (TP53, Homo sapiens, UniProt P04637)	binding, SPR		Kd	2.34 µM
CC(=O)N[C@H](C(=O)N[C@@H](CC(=O)O)C(=O)N[C@@H](CC(=O)O)C(=O)N[C@@H](Cc1ccccc1)C(=O)N[C@@H](CC(=O)O)C(=O)N[C@@H](CCCNC(=N)N)C(=O)N[C@H](C(=O)N[C@@H](Cc1c[nH]c2ccccc12)C(=O)N[C@@H](CCC(N)=O)C(=O)NCC(=O)N[C@@H](CC(C)C)C(=O)N[C@H](C(=O)NCC(=O)N[C@@H](CC(C)C)C(N)=O)C(C)C)C(C)C)C(C)C	E3 ubiquitin-protein ligase Mdm2 (MDM2, Homo sapiens, UniProt Q00987)	binding, BLI		Kd	33 µM
CSCC[C@H](NC(=O)[C@H](CCCNC(=N)N)NC(=O)[C@@H](N)C(C)C)C(=O)N[C@@H](CCCNC(=N)N)C(=O)N[C@@H](CC(C)C)C(=O)N[C@@H](CCCNC(=N)N)C(=O)N[C@@H](CCCCN)C(=O)N[C@@H](CC(C)C)C(=O)N[C@@H](CCCNC(=N)N)C(=O)N[C@@H](C)C(=O)N[C@@H](CO)C(=O)N[C@@H](Cc1ccccc1)C(=O)N[C@@H](Cc1ccccc1)C(=O)N[C@@H](CCCCN)C(=O)N1CCC[C@H]1C(=O)N[C@@H](CCCNC(=N)N)C(=O)N[C@@H](CCC(=O)O)C(=O)O	TEAD4	binding, SPR	pH 7.4	Kd	4.59 µM
CC[C@H](C)[C@H](NC(=O)[C@H](Cc1c[nH]cn1)NC(=O)[C@@H](N)CCC(=O)O)C(=O)N1CCC[C@H]1C(=O)N1CCC[C@H]1C(=O)N1CCC[C@H]1C(=O)N1CCC[C@H]1C(=O)N[C@@H](CCCNC(=N)N)C(=O)N1CCC[C@H]1C(=O)N1CCC[C@H]1C(=O)N[C@@H](CCCCN)C(=O)N[C@@H](CCCNC(=N)N)C(=O)O	ENAH	binding, fluorescence		Kd	13.8 µM
CSCC[C@H](NC(=O)[C@@H]1CCCN1C(=O)[C@@H](N)C(C)C)C(=O)N[C@@H](CCCNC(=N)N)C(=O)N[C@@H](CC(C)C)C(=O)N[C@@H](CCCNC(=N)N)C(=O)N[C@@H](CCCCN)C(=O)N[C@@H](CC(C)C)C(=O)N[C@@H](CCCNC(=N)N)C(=O)N[C@@H](C)C(=O)N[C@@H](CO)C(=O)N[C@@H](Cc1ccccc1)C(=O)N[C@@H](Cc1ccccc1)C(=O)N[C@@H](CCCCN)C(=O)N1CCC[C@H]1C(=O)N1CCC[C@H]1C(=O)N[C@@H](CCC(=O)O)C(=O)O	TEAD4	binding, SPR	pH 7.4	Kd	23.9 µM
COc1ncccc1-c1cnn2ccc(N3CCN(C(=O)OC(C)C)CC3)nc12	Interferon-induced, double-stranded RNA-activated protein kinase (EIF2AK2, Homo sapiens, UniProt P19525)	binding, competition with immobilised ligand	1 µM	remaining binding	79%
